# Measurements from different studies.
# Compare with care: the assays were run in different laboratories. ± gives the spread as reported.
Compound,test,test system,setting,quantity,result
O=C1Nc2ccccc2C(=O)CCc2cc(O)ccc21,nephelometry,aqueous buffer,"30 min, pH 6.5",kinetic solubility,25 to 50 µg/mL
CC(C)C[C@H](NC(=O)[C@H](CCc1ccccc1)NC(=O)CN1CCOCC1)C(=O)N[C@@H](Cc1ccccc1)C(=O)N[C@@H](CC(C)C)C(=O)[C@@]1(C)CO1,LC-MS,"human, plasma","intravenous push, 11 mg/m^2",Vz,234 L
Cc1nc(-c2ccc(OCC(C)C)c(C#N)c2)sc1C(=O)O,,"adults with gout, plasma","oral, 80 mg, added: verinurad 2.5 mg",AUC(0-24),6360 ng·h/mL
CC(=O)Nc1ccc(O)cc1,glutathione conjugation,rat liver S9,"100 µM, 2 h, pH 7.4, added: glutathione 0.2 mM",parent remaining,43%
CCCOc1ccc([C@H]2CNC(=O)N2c2ccc3[nH]cnc3c2)cc1,,"human volunteers fasted, plasma","oral solution, 100 mg single dose, day 1, geometric mean",AUC(0-12h),680 ng·h/mL
CC(C)C[C@H](NC(=O)[C@H](CCc1ccccc1)NC(=O)CN1CCOCC1)C(=O)N[C@@H](Cc1ccccc1)C(=O)N[C@@H](CC(C)C)C(=O)[C@@]1(C)CO1,,"human patients, plasma","intravenous infusion 10 min, 20 mg/m^2, day 1 of cycle 1, KRd regimen",elimination half-life,0.58 ± 0.26 h
Cc1nc2cccc(OCC(C)(C)C(=O)NC(C)C)c2c(N)c1C(=O)O,,"male Sprague-Dawley rat, plasma","oral food admix, 30 mg/kg/day, day 7, 90-day dietary study",AUC(0-24 h),250 ng·h/mL
Cc1cc(C(=O)NC(C)(C)COc2cccc3c2C(N)=NS(=O)(=O)N3)cc(C)n1,,"Sprague-Dawley rat, both sexes, plasma","oral, suspension in 1% methylcellulose",oral bioavailability,0.15 to 0.43%
Cn1cc(-c2ccc3nnc(Sc4ccc5ncccc5c4)n3n2)cn1,,"guinea pig Hartley male, hepatic S9","1 µM, pH 7.4, added: without NADPH",CLint,15.8 ± 6.15 mL/min/kg
C[C@@H](c1ncncc1F)[C@](O)(Cn1cncn1)c1ccc(F)cc1F,,"patients, hematological disorders, CYP2C19 NM without PPI, plasma","200 mg, 12 h, steady state, median, combined score 2",trough concentration,1130 ng/mL
CCN1C(=O)CNc2ncc(-c3ccc(-c4nc[nH]n4)nc3C)nc21,,"human, plasma","oral, 40 mg once daily, multiple doses",AUC(0-12h),1730 ng·h/mL
Cn1cc(-c2cc(N3CCCS3(=O)=O)ccc2Oc2ccc(F)cc2F)c2c(F)c[nH]c2c1=O,,"Sprague-Dawley rat, plasma","oral vs intravenous, 3 mg/kg oral, 1 mg/kg i.v.",oral bioavailability,30.9%
CCC[N+]1(CC(=O)OC2CCCCCCCCCCC2)CCCCC1.[I-],,phosphate buffer with 2% DMSO,"90 min, pH 7.4, theoretical maximum 200 µM",aqueous solubility,194 µM
O=C1Nc2ccccc2C(=O)CCc2ccc(O)cc21,nephelometry,aqueous buffer,"30 min, pH 6.5",kinetic solubility,12.5 to 25 µg/mL
O=S(=O)(c1cc(F)c(O)c2ncccc12)N1CCCC1,,"rat Sprague-Dawley male, plasma","oral, 10 mg/kg, 4 h",free concentration,23 nM
COc1cccc2c1C(=O)c1c(O)c3c(c(O)c1C2=O)C[C@@](O)(C(=O)CO)C[C@@H]3O[C@H]1C[C@H](N)[C@H](O)[C@H](C)O1,,"female BALB/c mice, serum","intravenous, 18 mg total in three doses, 2 weeks after last dose",LDH,250 ± 11.7 IU/L
CC(C)[C@H](N)C(=O)N[C@@H](Cc1c[nH]cn1)C(=O)N1CCC[C@H]1C(=O)N[C@@H](CCCCN)C(=O)N[C@@H](CCC(N)=O)C(=O)N[C@@H](Cc1c[nH]cn1)C(=O)N[C@@H](CCCNC(=N)N)C(=O)NCC(=O)NCC(=O)N[C@@H](CO)C(=O)N[C@@H](Cc1ccc(O)cc1)C(=O)NCCCC[C@H](NC(=O)[C@H](Cc1ccc(O)cc1)NC(=O)[C@H](CO)NC(=O)CNC(=O)CNC(=O)[C@H](CCCNC(=N)N)NC(=O)[C@H](Cc1c[nH]cn1)NC(=O)[C@H](CCC(N)=O)NC(=O)[C@H](CCCCN)NC(=O)[C@@H]1CCCN1C(=O)[C@H](Cc1c[nH]cn1)NC(=O)[C@@H](N)C(C)C)C(=O)NCCCC[C@H](NC(=O)[C@H](CCCCNC(=O)[C@H](Cc1ccc(O)cc1)NC(=O)[C@H](CO)NC(=O)CNC(=O)CNC(=O)[C@H](CCCNC(=N)N)NC(=O)[C@H](Cc1c[nH]cn1)NC(=O)[C@H](CCC(N)=O)NC(=O)[C@H](CCCCN)NC(=O)[C@@H]1CCCN1C(=O)[C@H](Cc1c[nH]cn1)NC(=O)[C@@H](N)C(C)C)NC(=O)[C@H](Cc1ccc(O)cc1)NC(=O)[C@H](CO)NC(=O)CNC(=O)CNC(=O)[C@H](CCCNC(=N)N)NC(=O)[C@H](Cc1c[nH]cn1)NC(=O)[C@H](CCC(N)=O)NC(=O)[C@H](CCCCN)NC(=O)[C@@H]1CCCN1C(=O)[C@H](Cc1c[nH]cn1)NC(=O)[C@@H](N)C(C)C)C(=O)N[C@@H](CCCCNC(=O)CON=Cc1ccc(F)cc1)C(=O)O [fluorine-18 labelled],,wild-type mouse,"intravenous, 150 µCi",blood half-life,0.267 ± 0.01 h
Clc1ccccc1C(c1ccccc1)(c1ccccc1)n1ccnc1,equilibrium dialysis,500 nM CYP26B1 in buffer,"1 µM, 12 h, pH 7.4, spectral binding conditions",unbound fraction,0.005 ± 0.0006
Cn1c(-c2ccc(C(N)=O)cc2F)nnc1C(C)(C)Oc1c(F)cc(Cl)cc1F,,"healthy young Japanese subjects, plasma","oral, 20 mg once daily, day 18, 14 days dosing",half-life range,14.5 to 44.8 h
CCCCCCCCCCCCCCCCCCOP(=O)([O-])OC1CC[N+](C)(C)CC1,,"rhesus monkey, male, plasma","oral, 7 mg/kg, single dose, mean of 3",terminal half-life,195 h
CO/N=C1\C[C@]2(C[C@@H]3C[C@@H](C/C=C(\C)C[C@@H](C)/C=C/C=C4\CO[C@@H]5[C@H](O)C(C)=C[C@@H](C(=O)O3)[C@]45O)O2)O[C@H](/C(C)=C/C(C)C)[C@H]1C,"HPLC, non-compartmental","Corriedale lambs, parasitized, plasma","subcutaneous, 0.2 mg/kg, added: closantel 5 mg/kg subcutaneous",elimination half-life,103 h
O=C(/C=C/c1ccc(O)c(O)c1/C=C/c1ccc(O)c(O)c1)O[C@H](Cc1ccc(O)c(O)c1)C(=O)O,UPLC-MS/MS,"Wistar rat, microcirculation dysfunction model, plasma","oral, 100 mg/kg Salvia miltiorrhiza stem-leaf extract FS",MRT(0-inf),29.2 ± 30.6 h
CC(O)c1cc(C(=O)N[C@@H](C)Cn2ccc(-c3ccc(C#N)c(Cl)c3)n2)[nH]n1 (stereo partly drawn),,"human, male, plasma","oral, 600 mg twice daily, day 7, with food, multiple doses",AUC(0-12),28800 ng·h/mL
O=C(O)[C@H](c1ccccc1Cl)N1CCc2sccc2C1,HPLC-MS/MS,feline citrate plasma,"48 h, -20 °C, storage stability",deviation from nominal,16%
CS(=O)(=O)Nc1ccc(C(=O)O[C@@H](Cc2c(Cl)c[n+]([O-])cc2Cl)c2ccc(OC(F)F)c(OCC3CC3)c2)cc1OCC1CC1,,"human, plasma","inhaled, 1600 µg once daily, day 7, single-dose dry powder inhaler",tmax,2 h
C=CC(=C)CC[C@]1(C)[C@H](C)C[C@H](OC(=O)CCCCC)[C@@]23C(=C[C@H](O)C[C@@H]12)[C@@H](OC(C)=O)O[C@H]3OC(C)=O,haemolysis,,100 µM,haemolysis,19.6%
Cc1c2c(n(-c3ccc(F)cc3Cl)c1-c1ccc(OS(=O)(=O)CCC(F)(F)F)cc1)CCN(N1CCCCC1)C2=O,LC-MS/MS,"cynomolgus monkey 3, plasma","intravenous infusion, 0.06 mg/kg, 90 min, total concentration mid-point of PET",plasma concentration,31 nM
COc1ccc(Nc2c3ccccc3nc3occ(Cl)c23)cc1,,"Wistar rat, male, plasma","intravenous, 4.7 mg/kg",elimination half-life,0.994 ± 0.138 h
CC(C)(Sc1ccncc1-c1ccc(C#N)c2ccccc12)C(=O)O,,"non-Asian male subjects, plasma","oral, 10 mg, single dose, fed, geometric least squares mean",AUC(0-24),111 ng·h/mL
Oc1ccc(C(c2ccc(O)cc2)(C(F)(F)F)C(F)(F)F)cc1,,"male rat, plasma","oral, 340 mg/kg, single dose",half-life,13.9 h
O=C1NC(=O)[C@@H](c2cn3c4c(cccc24)CCC3)[C@@H]1c1c[nH]c2ccccc12,,"human, plasma","oral, 120 mg, steady state, median, added: topotecan intravenous",AUC(0-12h),12000 ng·h/mL
CC1(C)S[C@@H]2[C@H](NC(=O)[C@H](N)c3ccc(O)cc3)C(=O)N2[C@H]1C(=O)O,,"male ICR mouse, liver","oral, 3 mg/kg, 24 h",AUC,18700 ng·h/mL
CC(C)NCC1CCc2cc(CO)c([N+](=O)[O-])cc2N1 (stereo not drawn),,mouse liver microsomes,"1 µM, pH 7.4",unbound intrinsic clearance,241 µL/min/mg
O=C(Nc1c(Cl)cncc1Cl)c1ccc(OC(F)F)c(OCC2CC2)c1,,"human adults, plasma","topical, 0.3% cream once daily, 14 days",elimination half-life,96 h
CCCC[C@H](NC(C)=O)C(=O)N[C@H]1CCC(=O)NC[C@@H](C(=O)N[C@@H](Cc2c[nH]c3ccccc23)C(N)=O)NC(=O)[C@H](CCCNC(=N)N)NC(=O)[C@@H](Cc2ccccc2)NC(=O)[C@H](Cc2c[nH]cn2)NC1=O,,"beagle dog, female, plasma","subcutaneous, 1.5 mg/kg daily, day 1",Tmax,1.3 h
COc1cc(Nc2ncc3c(n2)-c2ccc(Cl)cc2C(c2c(F)cccc2OC)=NC3)ccc1C(=O)O,,"children, UGT1A1 extensive metabolizers, no grade ≥2 toxicity, plasma","oral, 80 mg/m2, day 4",trough concentration,810 ± 430 nM

# A few entries again:
Compound,test,test system,setting,quantity,result
Cn1c(-c2ccc(C(N)=O)cc2F)nnc1C(C)(C)Oc1c(F)cc(Cl)cc1F,,"healthy young Japanese subjects, plasma","oral, 20 mg once daily, day 18, 14 days dosing",half-life range,14.5 to 44.8 h
CCCCCCCCCCCCCCCCCCOP(=O)([O-])OC1CC[N+](C)(C)CC1,,"rhesus monkey, male, plasma","oral, 7 mg/kg, single dose, mean of 3",terminal half-life,195 h
CO/N=C1\C[C@]2(C[C@@H]3C[C@@H](C/C=C(\C)C[C@@H](C)/C=C/C=C4\CO[C@@H]5[C@H](O)C(C)=C[C@@H](C(=O)O3)[C@]45O)O2)O[C@H](/C(C)=C/C(C)C)[C@H]1C,"HPLC, non-compartmental","Corriedale lambs, parasitized, plasma","subcutaneous, 0.2 mg/kg, added: closantel 5 mg/kg subcutaneous",elimination half-life,103 h
O=C(/C=C/c1ccc(O)c(O)c1/C=C/c1ccc(O)c(O)c1)O[C@H](Cc1ccc(O)c(O)c1)C(=O)O,UPLC-MS/MS,"Wistar rat, microcirculation dysfunction model, plasma","oral, 100 mg/kg Salvia miltiorrhiza stem-leaf extract FS",MRT(0-inf),29.2 ± 30.6 h
CC(O)c1cc(C(=O)N[C@@H](C)Cn2ccc(-c3ccc(C#N)c(Cl)c3)n2)[nH]n1 (stereo partly drawn),,"human, male, plasma","oral, 600 mg twice daily, day 7, with food, multiple doses",AUC(0-12),28800 ng·h/mL
O=C(O)[C@H](c1ccccc1Cl)N1CCc2sccc2C1,HPLC-MS/MS,feline citrate plasma,"48 h, -20 °C, storage stability",deviation from nominal,16%
